{"data": "Measurements pooled from the literature", "JAK2": "Tyrosine-protein kinase JAK2 (JAK2, Homo sapiens, UniProt O60674)", "JAK2 JH1": "Tyrosine-protein kinase JAK2, JH1 (JAK2, Homo sapiens, UniProt O60674)", "note": "Protocols differ between the studies behind these lines.", "chain of UniProt O60674 (whole entry, looked up)": "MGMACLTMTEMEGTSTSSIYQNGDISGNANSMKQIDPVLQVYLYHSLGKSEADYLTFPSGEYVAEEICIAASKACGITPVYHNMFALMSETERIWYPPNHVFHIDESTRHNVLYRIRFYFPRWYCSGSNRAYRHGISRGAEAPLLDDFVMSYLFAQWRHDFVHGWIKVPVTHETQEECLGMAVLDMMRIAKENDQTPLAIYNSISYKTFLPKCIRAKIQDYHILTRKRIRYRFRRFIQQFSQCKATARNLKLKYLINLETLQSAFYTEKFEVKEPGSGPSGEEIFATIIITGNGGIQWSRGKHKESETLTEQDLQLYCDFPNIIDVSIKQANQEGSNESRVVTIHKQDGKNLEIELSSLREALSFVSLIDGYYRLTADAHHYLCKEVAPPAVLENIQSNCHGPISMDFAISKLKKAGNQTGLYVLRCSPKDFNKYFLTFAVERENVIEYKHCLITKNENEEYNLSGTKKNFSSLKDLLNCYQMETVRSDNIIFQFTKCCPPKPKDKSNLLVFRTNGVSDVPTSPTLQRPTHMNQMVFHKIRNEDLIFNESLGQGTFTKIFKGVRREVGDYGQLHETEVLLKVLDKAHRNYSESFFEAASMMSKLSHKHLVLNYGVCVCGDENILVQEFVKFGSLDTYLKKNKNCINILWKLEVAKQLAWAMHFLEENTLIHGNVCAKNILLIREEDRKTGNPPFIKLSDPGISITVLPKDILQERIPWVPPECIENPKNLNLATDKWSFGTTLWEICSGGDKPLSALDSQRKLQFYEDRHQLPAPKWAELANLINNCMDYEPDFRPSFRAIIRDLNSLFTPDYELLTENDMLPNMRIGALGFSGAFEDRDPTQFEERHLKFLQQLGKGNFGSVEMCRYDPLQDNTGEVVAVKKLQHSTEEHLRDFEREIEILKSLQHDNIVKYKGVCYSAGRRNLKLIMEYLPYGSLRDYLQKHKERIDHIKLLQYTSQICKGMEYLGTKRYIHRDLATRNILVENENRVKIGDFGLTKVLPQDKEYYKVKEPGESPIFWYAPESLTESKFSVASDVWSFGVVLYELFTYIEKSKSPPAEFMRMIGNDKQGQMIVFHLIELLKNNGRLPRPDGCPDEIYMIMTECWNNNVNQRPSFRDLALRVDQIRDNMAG"}
{"SMILES": "CC(C)[C@H]1NC(=O)C[C@H]2/C=C/CCSSC[C@@H](NC1=O)C(=O)N[C@H](Cc1cccc3ccccc13)C(=O)NCC(=O)O2", "target": "JAK2", "test": "enzyme activity, inhibitor", "setting": "10 µM", "quantity": "inhibition", "result": "-5.7%"}
{"SMILES": "C[C@H](NCc1ccc(-c2ccc(C(F)(F)F)cc2)cc1)C(N)=O", "target": "JAK2 JH1", "test": "cell-free assay, competition with immobilised ligand", "setting": "1 µM", "quantity": "inhibition", "result": "28%"}
{"SMILES": "CS(C)(=O)=Nc1ccc(-c2ccc(-c3nc4cc(O[C@@H]5CO[C@H]6[C@@H]5OC[C@H]6O)[nH]c4cc3F)cc2)cc1", "target": "JAK2", "test": "enzyme activity, inhibitor", "setting": "10 µM", "quantity": "inhibition", "result": "18%"}
{"SMILES": "CCOC(=O)[C@@H]1Cc2c(cc([N+](=O)[O-])cc2[N+](=O)[O-])[C@H](O)[C@]12C(=O)Nc1ccc(Br)cc12", "target": "JAK2", "test": "KINOMEscan", "setting": "100 nM", "how to read": "relative to: DMSO control", "quantity": "remaining binding", "result": "11%"}
{"SMILES": "O=C(N[C@@H]1c2ccccc2C[C@H]1N1CCCC1)c1ccc(-c2ccnc3[nH]ccc23)nc1", "target": "JAK2 JH1", "test": "binding, competition with immobilised ligand", "setting": "3 µM", "quantity": "remaining binding", "result": "2.1%"}
{"SMILES": "O=C(CN1CN(c2ccccc2)C2(CCN(C(=O)c3cnc4[nH]ncc4c3)CC2)C1=O)NCC(F)(F)F", "target": "JAK2", "test": "inhibitor", "setting": "concentration not given", "quantity": "inhibition", "result": "< 50%"}
{"SMILES": "Nc1ccc(/C=C/C(=O)N2CCc3c(oc4c(-c5ccc(F)cc5)cc(-c5ccc(C(=O)N6CCC(F)(F)CC6)cn5)cc34)C2)cn1", "target": "JAK2 JH1", "test": "binding, competition with immobilised ligand", "setting": "1 µM", "quantity": "remaining binding", "result": "85%"}
{"SMILES": "CN(/N=C/c1ccccc1C(=O)O)c1nc(-c2ccccc2Cl)cs1", "target": "JAK2", "test": "enzyme activity, inhibitor", "setting": "1 µM", "quantity": "inhibition", "result": "0.28%"}
{"SMILES": "O=C1NC(=O)c2c1c1cc(F)c[n+]3c1c1c2c2cc(O)ccc2[n]1[Ru-4]312([N]=C=S)[S+]3CC[S+]1CC[S+]2CC3 (stereo not drawn)", "target": "JAK2", "test": "enzyme activity", "setting": "100 nM, human enzyme, together with: 10 µM ATP", "how to read": "relative to: untreated", "quantity": "remaining activity", "result": "71%"}
{"note": "Some of these lines once more:"}
{"SMILES": "Nc1ccc(/C=C/C(=O)N2CCc3c(oc4c(-c5ccc(F)cc5)cc(-c5ccc(C(=O)N6CCC(F)(F)CC6)cn5)cc34)C2)cn1", "target": "JAK2 JH1", "test": "binding, competition with immobilised ligand", "setting": "1 µM", "quantity": "remaining binding", "result": "85%"}
